Measured values collected from several papers.
Lines come from different studies, so protocols differ. Values joined by “and” are separate records of one study, mostly repeats; a detail may differ. ± marks the error that the study gave.
RPS6KA1: Ribosomal protein S6 kinase alpha-1 (RPS6KA1, Homo sapiens, UniProt Q15418)
TRPM8: Transient receptor potential cation channel subfamily M member 8 (TRPM8, Homo sapiens, UniProt Q7Z2W7)
PRKCG: Protein kinase C gamma type (PRKCG, Homo sapiens, UniProt P05129)
LCK: Tyrosine-protein kinase Lck (LCK, Homo sapiens, UniProt P06239)
spsB: Signal peptidase IB (spsB, Staphylococcus aureus, UniProt Q5HHB9)

| target | test | test system | conditions | scale | remaining activity | Structure (SMILES) |
| --- | --- | --- | --- | --- | --- | --- |
| Myosin-7 (MYH7, Bos taurus, UniProt Q9BE39) | actin-activated ATPase activity, inhibitor | – | 500 µM | – | ~2% | Cc1ccc2c(c1)C(=O)[C@]1(O)CCN(c3ccc([N+](=O)[O-])cc3)C1=N2 |
| RPS6KA1 | enzyme activity | – | 10 µM | – | 88% | O=C1NC(=O)/C(=C/c2ccc(-c3ccc(F)cc3O)o2)S1 |
| TRPM8 | antagonist | HEK293 | 5 µM | baseline: control | 95.9 ± 10.8% | COc1ccc(CNC(=O)Nc2ncc([N+](=O)[O-])s2)cc1 |
| Peroxidasin homolog (PXDN, Homo sapiens, UniProt Q92626) | enzyme activity, inhibitor, Amplex UltraRed | – | 20 µM | baseline: control | 24.4% and 23.2% | NC/C(=C\F)COc1cccc(Cn2c(=S)[nH]c(=O)c3[nH]cnc32)c1 |
| TRPM8 | antagonist | HEK293 | 5 µM | baseline: control | 85 ± 7.68% | O=C1c2ccccc2-c2nc3nnnn3nc21 |
| Mitogen-activated protein kinase kinase kinase 11 (MAP3K11, Homo sapiens, UniProt Q16584) | kinase activity, inhibitor, HotSpot radiometric | – | 100 nM, added: ATP 10 µM | – | 78.4 ± 0.8% | C=CC(=O)N1CCC([C@@H]2CCNc3c(C(N)=O)c(-c4ccc(Oc5ccccc5)cc4)nn32)CC1 |
| Serine/threonine-protein kinase/endoribonuclease IRE1 (ERN1, Homo sapiens, UniProt O75460) | enzyme activity | – | 10 µM | baseline: control | 8.9% | COc1cc(N2CCN(C)CC2)ccc1Nc1nc(N)n(C(=O)NCc2ccccc2S(=O)(=O)C(C)C)n1 |
| EPHA4 | kinase activity | – | 1 µM | – | 6% | COc1cc(Nc2ncc3c(n2)-c2ccc(Cl)cc2C(c2c(F)cccc2OC)=NC3)ccc1C(=O)O |
| PRKCG | kinase activity, KinaseProfiler | – | 0.03 µM, species human | baseline: control | 87% | Cc1cc(Nc2cc(N3CCN(C)CC3)nc(Sc3ccc(NC(=O)C4CC4)cc3)n2)[nH]n1 |
| LCK | – | – | 1 µM | – | 73.4% | C=CC(=O)N1CCC[C@@H](n2nc(-c3ccc(Oc4ccccc4)cc3)c3c(N)ncnc32)C1 |
| TRPM8 | antagonist | HEK293 | 5 µM | baseline: control | 93.8 ± 3.84% | Ic1cccc(CSc2nnc(-c3ccncc3)o2)c1 |
| spsB | peptidase activity, activator, FRET peptide cleavage | Staphylococcus aureus, membranes | 10 µM | baseline: DMSO | 105% | O=C(Nc1ccc(Cl)c(C(F)(F)F)c1)N1CCC(F)(F)CC1 |
| Calcium/calmodulin-dependent protein kinase kinase 2 (CAMKK2, Homo sapiens, UniProt Q96RR4) | kinase activity, inhibitor, HotSpot radiometric | – | 1000 nM, added: ATP at Km | – | 86 ± 3.4% | COc1ccc(F)cc1C(=O)NCc1ccc(-c2nn([C@@H](C)C(F)(F)F)c(N)c2C(N)=O)cc1 |
| PRKCG | kinase activity, inhibitor | – | 1 µM | baseline: untreated control | 89% | CNc1ncc2c(/C=C/C(=O)N3CCC(OC)CC3)nn(Cc3cccc(C(F)(F)F)c3)c2n1 |
| TRPM8 | antagonist | HEK293 | 5 µM | baseline: control | 94.8 ± 8.13% | CCCCc1c(-c2ccc(OC)cc2)[nH]c2nccnc12 |
| LCK | kinase activity, inhibitor, HotSpot radiometric | – | 100 nM, added: ATP 10 µM | – | 9.5 ± 0.4% | C=CC(=O)N1CCC[C@@H](n2nc(-c3ccc(Oc4ccccc4)cc3)c3c(N)ncnc32)C1 |
| TRPM8 | antagonist | HEK293 | 5 µM | baseline: control | 106 ± 10.3% | COc1cc2ncnc(Nc3cccc(Cl)c3)c2cc1OC |
| RPS6KA1 | kinase activity | – | 10 µM, added: 10 µM ATP | – | 85% | COc1cc(F)ccc1-c1ncnc(Nc2cccc(C[S@](C)(=N)=O)c2)n1 |

| target | test | test system | conditions | scale | remaining activity | Structure (SMILES) |
| --- | --- | --- | --- | --- | --- | --- |
| spsB | peptidase activity, activator, FRET peptide cleavage | Staphylococcus aureus, membranes | 50 µM | baseline: DMSO | 177% | O=C(Nc1cccc(NC(=O)Nc2ccc(Cl)c(C(F)(F)F)c2)c1)Nc1ccc(Cl)c(C(F)(F)F)c1 |
| Potassium voltage-gated channel subfamily KQT member 1, with KCNE1 (KCNQ1, Homo sapiens, UniProt P51787) | IKs current | HEK293 | 100 µM, step to +20 mV | – | 95% | CCN(CCO)CCCC(C)Nc1ccnc2cc(Cl)ccc12 (centres unmarked) |
| spsB | peptidase activity, activator, FRET peptide cleavage | Staphylococcus aureus, membranes | 100 µM | baseline: DMSO | 195% | O=C(Nc1ccc(N2CCOCC2)cc1)Nc1ccc(Cl)c(C(F)(F)F)c1 |
| Casein kinase I isoform alpha-like (CSNK1A1L, Homo sapiens, UniProt Q8N752) | enzyme activity | – | 10 µM | baseline: control | 34% | COc1cc(N2CCN(C)CC2)ccc1Nc1nc(N)n(C(=S)NCc2c(Cl)cccc2Cl)n1 |
| spsB | peptidase activity, activator, FRET peptide cleavage | Staphylococcus aureus, membranes | 10 µM | baseline: DMSO | 115% | O=C(Nc1ccc2c(c1)OCCO2)Nc1ccc(Cl)c(C(F)(F)F)c1 |
| EphA8(h) | kinase activity | – | 1 µM | – | 87% | O=C(O)c1ccc(Nc2ncc3c(n2)-c2ccc(Cl)cc2C(c2c(F)cccc2F)=NC3)cc1 |
| TRPM8 | antagonist | HEK293 | 5 µM | baseline: control | 106 ± 7.52% | COc1cc2ncnc(Nc3ccc(NC(=O)c4ccccc4)cc3)c2cc1OC |
| spsB | peptidase activity, activator, FRET peptide cleavage | Staphylococcus aureus, membranes | 100 µM | baseline: DMSO | 172% | O=C(Nc1cccc(C(F)(F)F)c1)Nc1ccc2c(c1)OC(F)(F)O2 |
| TRAF2 and NCK-interacting protein kinase (TNIK, Homo sapiens, UniProt Q9UKE5) | enzyme activity | – | 10 µM | – | 88% | O=C(NC1CCC1)c1ccc2nc(-c3cccc(NS(=O)(=O)NCCN4CCCCC4)c3)cn2c1 |
| Cyclin-dependent kinase 19, with cyclin C (CDK19, Homo sapiens, UniProt Q9BWU1) | kinase activity, inhibitor, HotSpot radiometric | – | 100 nM, added: ATP 10 µM | – | 47.8 ± 0.4% | CC#CC(=O)N1CCC[C@H]1c1nc(-c2ccc(C(=O)Nc3ccccn3)cc2)c2c(N)nccn12 |
| TRPM8 | antagonist | HEK293 | 5 µM | baseline: control | 95.4 ± 10.7% | COc1cc2ncnc(Nc3ccc(OCc4ccccc4)cc3)c2cc1OC |
| spsB | peptidase activity, activator, FRET peptide cleavage | Staphylococcus aureus, membranes | 50 µM | baseline: DMSO | 128% | CCCCNC(=O)c1ccc(NC(=O)Nc2ccc(Cl)c(C(F)(F)F)c2)cc1 |
| TRPM8 | antagonist | HEK293 | 5 µM | baseline: control | 89.1 ± 16.3% | CO[C@H]1C[C@@H]2CC[C@@H](C)[C@@](O)(O2)C(=O)C(=O)N2CCCC[C@H]2C(=O)O[C@H]([C@H](C)C[C@@H]2CC[C@@H](O)[C@H](OC)C2)CC(=O)[C@H](C)/C=C(\C)[C@@H](O)[C@@H](OC)C(=O)[C@H](C)C[C@H](C)/C=C/C=C/C=C/1C |
| spsB | peptidase activity, activator, FRET peptide cleavage | Staphylococcus aureus, membranes | 10 µM | baseline: DMSO | 120% | CCc1ccc(NC(=O)Nc2ccc(Cl)c(C(F)(F)F)c2)cc1 |
| C-X-C chemokine receptor type 4 (CXCR4, Homo sapiens, UniProt P61073) | arrestin recruitment, antagonist, DiscoverX arrestin | – | 30 µM | baseline: untreated | 0.26% and -0.21% | CCc1noc(CSc2nnc(COc3ccccc3-c3ccccc3)n2CCOC)n1 |
| spsB | peptidase activity, activator, FRET peptide cleavage | Staphylococcus aureus, membranes | 50 µM | baseline: DMSO | 134% | O=C(Nc1ccc2c(c1)CCC2)Nc1ccc(Cl)c(C(F)(F)F)c1 |
| Serine/threonine-protein kinase PLK3 (PLK3, Homo sapiens, UniProt Q9H4B4) | kinase activity | – | 1 µM, human enzyme, added: ATP 10 µM | baseline: DMSO control | 101% | COc1cc(-c2cncc3c2CN(C)Cc2cc(N4CCNCC4)ccc2-3)cc(OC)c1OC |
